Results collected from several papers.
Each numbered part is a random draw from the data of one study; scales do not carry over between parts.

Study 1
Target: Fragile X messenger ribonucleoprotein 1, C-terminal low-complexity region (Fmr1, Mus musculus, UniProt P35922)
Method: RNA Bind-n-Seq
Molecule type: RNA
Sample: in vitro
Concentration: 200 nM
Setting: whole 134-nt RNA, ends assumed
Together with: 150 mM LiCl
Reference: input library
Reading: higher = stronger binding
Each molecule: 7-deaza-guanosine replaces G
All sequences stand within: GGGAGUUCUACAGUCCGACGAUC … UGGAAUUCUCGGGUGUCAAGG
Oligonucleotide	log2 enrichment
UCCUGUGCUACACAUCGUAUGUACCGAAUCGGGCCCCCGGGGCCCCCGGGGCCCCCGGGAAAGUAUUAUGUUACGCCGUUCGGAUCUGCA	-1.54
GUCCUGUGCUACACAUCGUAUGUACCGAAUCGGAAAAAAGGAAAAAAGGGGAAAAAAGGAAAGUAUUAUGUUACGCCGUUCGGAUCUGCA	-0.0551
UGGCCCUGGUCGCAUGCGGGGAGGAAGAGGUGGCCUCAUGGAUCGUGGUGGUCCCGGUGGAAUGUUCAGAGGUGGCCGUGGUGGAGACAG	0.15
GCAGGAAGUAAAAGCAAAUGGAAAUGCUUCGGAUAGUGGCAGGGGUGGGGGUUGCUAAGGAAAGGGUGGGAUGGGAGUGGGUAAAGAGUU	1.58
UGCUAGGCAAUGGAUCACUUGGAGUCCUUUAUUGCUGAAUGUGAUCGGAGAACUGAGCUCGCCAAGAAGCGGCUGGCAGAAACACAGGAG	-1.24
UGGCCCUGGUGGCAUGCGGGGAGGAAGAGGUGGCCUCAUGGAUCGUGGUGGUCCCGGUGGAAUGUUGAGAGGUGGCCGUGGUGGAGACAG	0.00983
AGUCCUGUGCUACACAUCGUAUGUACCGAAUCGGUUUUUGGGUUUUUGGUUUUUGGGAAAGUAUUAUGUUACGCCGUUCGGAUCUGCACU	-1.93
UGGGAGGUGGAUUUUGUUUGUUUUUUUAGCUCAUUUCCAGGGGUGGGAAUUUUUUUUUAAUAUGUGUCAUGAAUAAAGUUGUUUUUGAAA	0.781
GUCCUGUGCUACACAUCGUAUGUACCGAAUCGGGUUUUUUUGGGAAAAAGGGAAAGGGAAAGUAUUAUGUUACGCCGUUCGGAUCUGCAC	-1.84
ACCAUGCAGGUGGGCAUCUUUGGGAAGUGGGGCAAGGGGGGGAUAGGGAGGGCGGUAACACUUUGGGAACAGGUGGUCCCAGGUCGUUUC	0.605
GGGGGUGACCGCCGGAGCGCGGCGUGAGCCCUCCCCCUUGGGAUCCCGCAGCUGACCAGUCGCGCUGACGGACAGACAGACAGACACCGC	-1.11

Study 2
Target: RNA binding protein fox-1 homolog 2, RRM domain, GST-SBP tag (RBFOX2, Homo sapiens, UniProt O43251-10, residues 100-194)
Method: RNA Bind-n-Seq
Molecule type: RNA
Sample: in vitro
Concentration: 365 nM
Setting: natural RNA segment, single round, ends assumed
Reference: no-protein control
Reading: higher = stronger binding
All sequences stand within: GGGAGUUCUACAGUCCGACGAUC … UGGAAUUCUCGGGUGCCAA
Construct (chain): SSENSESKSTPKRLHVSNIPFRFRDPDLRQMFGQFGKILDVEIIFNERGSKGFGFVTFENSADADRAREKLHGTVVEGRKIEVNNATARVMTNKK
Oligonucleotide	RBNS enrichment (R)
GAGUGAAUUUUUGCCAGUCUUGUGAGCAGAUGUACCUGAUGUAUUCUCAAUGUUCCAAGAGGUUCUGGCCUUCAGGGUCACAGGCAGUAGGGGGACAGCAUAAGGUCUAU	0.838
AUCAUGAUUUUGCAGAACCUUUGGUUUGGACAGUUCUGUUCUUUUGGAUUUGGAAUAGAUUACAUAGGAGUAUGAAGUAUGCUGUAAAUAAAAGUACAAGCCAGUGCUUU	0.976
GGGGGCCUCUCGAGGUCAGCCUCUCCAACCCCUACCUCAGCUCCUGUCUGCACUGAGAAACCUCCCCGGGUGAUGUCUGCAAAGUCUGUGCUGUCCGUGCCCCAGGCUGG	0.45
GAUGACAAGCUGUCUCCUGCGGAAGUGUAGCUUGUGGGUAUAGAGUUCUGUCUGCACCUGCCCUCUAGUGACCCUGGGCCUGUCCUCUGUAGAGACUCUGGUACAGAGGG	0.426
UUUGGCAUUCUGCCUUGAUUCCUUCUCAUUGAUGUCCAGGUCAUCUGGAGGCCGGGGGUUCUCAGACCUACCAGUUUCCCUUUAGAAGAACAAAUUUCCAGUUCCUCUAG	0.295
GCCGCGCAGGGCCACCUCCCUGGGUGGAUGCAUCACACUAAGGAAGUGAGUGCCAAGGGGAUUUAGUGGUGUGGUUCUUUCAAAGGGAGGUCAGGGUCAAUGGGAAUCUG	1.09
AUAUUUAAAACCCACAACUAAAACACAUCUGCAUAAUAGUGUUUGUUUGUUGAGAGGAUUUCCUGAGACUGGUUUGGGUCUCCCUGCAUGACAGUCCCCCAGAAACUUGG	49.1
UUAUUUGUACUAACUCAGCAUGUAACAACCAAUUUACAUAGAAAUAAAUUGAAAUAUGUUAACUACAUUCUUAAGUGGGGUUGUGUCUAUUAUUUCUGAGUAUUUACUCU	18.3
AACUCCCAGGAAUACUGUACCUGUGUUUGGAGGAGCUUUCUCAGAGAAAUAGCAAGCAUGUCCUGUUGCUUAACGUGUCCUUGUGAAUUGCUUGGUUUUGAUUAAAGUCU	13.7
GUUUUAAAUUUAAUCUUAUUUUUAUAUAAAAUGAUUGCCAGACGUACUAUAUUAAGCUUGAAGAAGCAGAAGAUCCCUGUUAAUGUGUAUGGCCCAGGCCAAGAGCUGUC	0.844
ACUGUUAGGGUACAUACGCUACCUUGAUGAAAGGGACCUUCGUGCAACUGUAGUCAUCUUAAAGGCUUCUCAUCCACUGUGCUUCUUAAUGUGUAAUUAAAGUGAGGAGA	0.25
AUUAUUUUGUGCAGUUAAUCAAAUUUGCCAAAGUCUUUAUCUGCCCCUUUAACAAGUUGAGUAAAAAUAAAAGGUAUUUUUUAGUCAAUGUGUUCCAUGAUUUUGCUUAA	0.519

Study 3
Target: Interferon regulatory factor 7, full length, phosphomimetic (IRF7, Homo sapiens, UniProt Q92985, residues 1-503, S101K/S471D/S472D/S475D/S476D/S477D/S483D/S484D/S487D)
Method: protein-binding microarray
Molecule type: double-stranded DNA, one strand shown
Sample: in vitro
Concentration: 250 nM
Setting: 60-bp whole probe
Together with: salmon DNA 0.4 mg/ml
Reference: random background probes
Reading: higher = stronger binding
All sequences stand within: GCCTAGCAC … GTCTTGATTCGCTTGACGCTGCTG
Residues (chain): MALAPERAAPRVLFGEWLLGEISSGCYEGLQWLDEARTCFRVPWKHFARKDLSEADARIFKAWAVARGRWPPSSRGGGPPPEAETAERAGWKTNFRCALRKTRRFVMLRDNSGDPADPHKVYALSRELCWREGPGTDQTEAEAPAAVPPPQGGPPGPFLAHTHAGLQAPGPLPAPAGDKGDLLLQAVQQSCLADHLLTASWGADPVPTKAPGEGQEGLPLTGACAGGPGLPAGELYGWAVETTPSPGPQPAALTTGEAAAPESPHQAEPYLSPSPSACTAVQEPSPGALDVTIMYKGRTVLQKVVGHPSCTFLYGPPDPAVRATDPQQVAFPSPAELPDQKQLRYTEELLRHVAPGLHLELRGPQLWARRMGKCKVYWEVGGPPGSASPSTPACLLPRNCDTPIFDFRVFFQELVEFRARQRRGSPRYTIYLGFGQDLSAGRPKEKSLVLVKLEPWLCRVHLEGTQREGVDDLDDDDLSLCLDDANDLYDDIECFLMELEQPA
Oligonucleotide	log fluorescence [z-score]
GACGGTCTCGGACAGGGGACGTGCTAG	0.0564
AGGACTCGAATCCTGCAGGGGTGCTAG	2.4
TTAGGACTGGGGACTTGGTTAGTGCTA	-0.599
GAGGGTCTCCTTCTCCTGACGTGCTAG	-0.226
TTTTACATTTTAAGAAATGTGTGCTAG	1.04
TTAGGTATCGACACTGGGTTAGTGCTA	-0.0818
TTAGGTCTGGACTATCGGTTAGTGCTA	-0.456
GGATGAAGCGCTTCTCGAGTGGTGCTA	-0.872
TTAGGACTGGAGTTTCGGTTAGTGCTA	6.3
TTAAGTATCGGGTTTCGGTTAGTGCTA	7.56
GACGATTTCGTGTTTCGAGACGTGCTA	2.59
TCACCTCCCTAATTCTGACTGTGCTAG	0.197
TCACTTATTGCTTCCTCACTGTGCTAG	0.709
GACGGTACCGACTTTCGGGACGTGCTA	0.215
CAGAGCATGGATCTGGGAACGTGCTAG	-0.835
GACGAACTGGGGACTGGCGACGTGCTA	-0.822
GTATATATGTGTATATATAAGTGCTAG	0.36
GACGGACTGGGGTTTCGGAACGTGCTA	1.92
ACTCTAATCTCACTCTGTCCGTGCTAG	0.213
TTATAACTGAGACTGGATTAGTGCTAG	0.0466
GCCCATCTCTGCTCCTTCTGGTGCTAG	0.618
GACGCTATCCTTTTCCTGACGTGCTAG	0.661
TCAACTCCCTCTCTGGCACTGTGCTAG	-0.44
TTAGGTTTCGCGACTGGGTTAGTGCTA	1.36
TCTACAATGGCTTTGCCTTTGTGCTAG	-0.697

Study 4
Target: Sal-like protein 4, full length isoform A (SALL4, Homo sapiens, UniProt Q9UJQ4, residues 1-1053)
UniProt Q9UJQ4, sequence (whole entry, looked up): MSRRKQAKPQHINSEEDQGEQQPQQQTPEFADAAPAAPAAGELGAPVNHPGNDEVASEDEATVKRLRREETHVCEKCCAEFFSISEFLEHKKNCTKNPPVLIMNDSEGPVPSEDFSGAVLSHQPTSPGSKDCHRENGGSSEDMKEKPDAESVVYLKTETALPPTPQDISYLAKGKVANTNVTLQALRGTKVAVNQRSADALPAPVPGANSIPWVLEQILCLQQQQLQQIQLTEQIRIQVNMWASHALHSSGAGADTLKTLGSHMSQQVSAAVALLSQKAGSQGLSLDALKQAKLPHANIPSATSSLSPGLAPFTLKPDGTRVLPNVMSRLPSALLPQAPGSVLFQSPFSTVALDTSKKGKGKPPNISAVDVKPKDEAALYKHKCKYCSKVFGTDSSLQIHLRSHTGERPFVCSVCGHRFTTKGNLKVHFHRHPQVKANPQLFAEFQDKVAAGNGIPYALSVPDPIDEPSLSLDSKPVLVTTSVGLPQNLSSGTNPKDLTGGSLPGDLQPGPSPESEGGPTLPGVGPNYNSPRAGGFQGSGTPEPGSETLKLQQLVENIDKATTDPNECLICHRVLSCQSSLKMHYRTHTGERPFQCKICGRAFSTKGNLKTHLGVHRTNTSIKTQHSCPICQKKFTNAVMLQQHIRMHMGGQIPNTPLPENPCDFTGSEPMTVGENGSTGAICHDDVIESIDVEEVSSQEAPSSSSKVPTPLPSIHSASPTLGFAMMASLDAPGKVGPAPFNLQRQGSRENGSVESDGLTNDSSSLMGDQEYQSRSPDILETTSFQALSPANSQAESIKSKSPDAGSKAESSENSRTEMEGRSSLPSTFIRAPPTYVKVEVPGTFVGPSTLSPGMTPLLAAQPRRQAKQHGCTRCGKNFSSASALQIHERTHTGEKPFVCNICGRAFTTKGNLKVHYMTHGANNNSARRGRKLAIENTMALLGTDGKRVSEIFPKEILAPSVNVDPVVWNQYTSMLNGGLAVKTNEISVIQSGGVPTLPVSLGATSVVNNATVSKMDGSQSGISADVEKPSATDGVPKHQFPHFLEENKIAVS
Method: universal PBM
Molecule type: double-stranded DNA, one strand shown
Sample: in vitro
Concentration: 600 nM
Setting: 8-mer, flanks averaged, mean of replicates
Reading: higher = stronger binding
Oligonucleotide	E-score
TATCCGCA	0.155
ATAAAGTG	0.283
AGGGCTCG	-0.249
CCACGTGA	-0.144
CCGTCACC	-0.21
ACAAGGTC	-0.0441
CGACATCC	-0.218
GTCTTCAC	-0.131
GTCCGGAC	-0.141
CATTGTAA	0.219
CGCGGCAA	-0.2
CACTGAAG	-0.0128
AAATCATG	0.252
AGCTAGGG	-0.154
GAAGCGCA	-0.262
CACACATG	0.0508
ACTTACAG	0.0996
CTTTTGTC	0.00915
ACAACCAT	0.252
CGCCCACG	-0.312
CCGATTAC	-0.115
CCTGGACG	-0.385
GAACAAGA	0.049
AAAATAAG	0.291
CCTAAAAC	0.083
